Published values collected from several papers.
Protocols differ between the studies behind these lines. Numbers after ± are the reported error.

SMILES = COc1ccc(C2CC(c3ccc(C)cc3)=Nc3ccccc3S2)cc1 (stereo not drawn); system = Wistar rat, streptozotocin-induced diabetes, serum; conditions = 10 mg/kg, 28 days; endpoint = serum ALT; result = 24.4 ± 2.78 IU/L
SMILES = CCCC[C@H](NC(=O)[C@@H](NC(=O)[C@H](CC(=O)O)NC(=O)[C@H](CCC(N)=O)NC(=O)[C@H](CC(C)C)NC(=O)[C@H](CC(C)C)NC(=O)[C@H](CCCN)NC(=O)[C@H](CCCNC(=N)N)NC(=O)[C@H](C)NC(=O)[C@H](CO)NC(=O)[C@H](CC(C)C)NC(=O)[C@H](CCC(N)=O)NC(=O)[C@H](CC)NC(=O)[C@H](CC(C)C)NC(=O)[C@@H](NC(=O)[C@H](CCCN)NC(=O)[C@H](CCCNC(=N)N)NC(=O)[C@H](Cc1ccc(O)cc1)NC(=O)[C@H](CO)NC(=O)[C@@H](NC(=O)[C@@H](NC(=O)[C@H](Cc1ccccc1)NC(=O)[C@@H](NC(=O)[C@H](C)NC(=O)[C@H](CC(=O)O)NC(=O)[C@@H](C)NC(=O)[C@H](Cc1ccc(O)cc1)NC)[C@@H](C)CC)[C@@H](C)O)[C@@H](C)O)C(C)C)[C@@H](C)CC)C(=O)N[C@@H](CC(=O)O)C(=O)N[C@@H](CCCNC(=N)N)C(=O)NC; test = GH release, ELISA; system = male Sprague-Dawley rat, anaesthetised, serum; conditions = subcutaneous, 3 µg/kg, 30 min; endpoint = serum GH level; result = 250 ± 28.6 ng/mL
SMILES = Cc1cc(O)c(C=O)c2c1C(=O)Oc1c(CO)c(O)c3c(c1O2)C(O)OC3=O (stereo not drawn); system = streptozotocin-induced diabetic male rats, serum; conditions = 10 mg/kg, 5 weeks; endpoint = serum insulin; result = 6.27 ± 0.16 mIU/L
SMILES = O=c1c(OCc2ccccc2)c(-c2ccc(Cl)cc2)oc2ccccc12; system = diabetic rat; conditions = 7.5 mg/kg, p-nitrophenyl β-glucoside induced; endpoint = serum alanine aminotransferase; result = 29.3 IU
SMILES = COc1ccc(C2CC(c3ccc(C)cc3)=Nc3ccccc3S2)cc1OC (stereo not drawn); system = Wistar rat, streptozotocin-induced diabetes, serum; conditions = 20 mg/kg, 28 days; endpoint = serum ALT; result = 20.1 ± 2.12 IU/L
SMILES = CCCC[C@H](NC(=O)[C@@H](NC(=O)[C@H](CC(=O)O)NC(=O)[C@H](CCC(N)=O)NC(=O)[C@H](CC(C)C)NC(=O)[C@H](CC(C)C)NC(=O)[C@H](CCCN)NC(=O)[C@H](CCCNC(=N)N)NC(=O)[C@H](C)NC(=O)[C@H](CO)NC(=O)[C@H](CC(C)C)NC(=O)[C@H](CCC(N)=O)NC(=O)[C@H](CC)NC(=O)[C@H](CC(C)C)NC(=O)[C@@H](NC(=O)[C@H](CCCN)NC(=O)[C@H](CCCNC(=N)N)NC(=O)[C@H](Cc1ccc(O)cc1)NC(=O)[C@H](CO)NC(=O)[C@H](CC(N)=O)NC(=O)[C@@H](NC(=O)[C@H](Cc1ccccc1)NC(=O)[C@@H](NC(=O)[C@H](C)NC(=O)[C@H](CC(=O)O)NC(=O)[C@@H](CC)NC(=O)CCc1ccc(O)cc1)[C@@H](C)CC)[C@@H](C)O)C(C)C)[C@@H](C)CC)C(=O)N[C@@H](CO)C(=O)N[C@@H](CCCNC(=N)N)C(=O)NCCCC(N)=O; test = GH release, ELISA; system = male Sprague-Dawley rat, anaesthetised, serum; conditions = subcutaneous, 3 µg/kg, 30 min; endpoint = serum GH level; result = 130 ± 19.1 ng/mL
SMILES = O=c1c(OCc2ccccc2)c(-c2cccc([N+](=O)[O-])c2)oc2ccccc12; system = diabetic rat; conditions = 5 mg/kg, p-nitrophenyl β-glucoside induced; endpoint = serum alkaline phosphatase; result = 211 ± 4.82 IU
SMILES = CCCC[C@H](NC(=O)[C@@H](NC(=O)[C@H](CC(=O)O)NC(=O)[C@H](CCC(N)=O)NC(=O)[C@H](CC(C)C)NC(=O)[C@H](CC(C)C)NC(=O)[C@H](CCCN)NC(=O)[C@H](CCCNC(=N)N)NC(=O)[C@H](C)NC(=O)[C@H](CO)NC(=O)[C@H](CC(C)C)NC(=O)[C@H](CCC(N)=O)NC(=O)[C@H](CC)NC(=O)[C@H](CC(C)C)NC(=O)[C@@H](NC(=O)[C@H](CCCN)NC(=O)[C@H](CCCNC(=N)N)NC(=O)[C@H](Cc1ccc(O)cc1)NC(=O)[C@H](CO)NC(=O)[C@H](CCC(N)=O)NC(=O)[C@@H](NC(=O)[C@H](Cc1ccccc1)NC(=O)[C@@H](NC(=O)[C@H](C)NC(=O)[C@H](CC(=O)O)NC(=O)[C@@H](C)NC(=O)CCc1ccc(O)cc1)[C@@H](C)CC)[C@@H](C)O)C(C)C)[C@@H](C)CC)C(=O)N[C@@H](CC(=O)O)C(=O)N[C@H](CCCNC(=N)N)C(=O)NC; test = GH release, ELISA; system = male Sprague-Dawley rat, anaesthetised, serum; conditions = subcutaneous, 3 µg/kg, 30 min; endpoint = serum GH level; result = 204 ± 23.7 ng/mL
SMILES = Cc1ccc(-c2oc3ccccc3c(=O)c2OCc2ccccc2)cc1; system = diabetic rat; conditions = 7.5 mg/kg, 28 days, p-nitrophenyl β-glucoside induced; endpoint = serum LDL cholesterol; result = 117 ± 3.29 mg/dL

Repeated from above:
SMILES = CCCC[C@H](NC(=O)[C@@H](NC(=O)[C@H](CC(=O)O)NC(=O)[C@H](CCC(N)=O)NC(=O)[C@H](CC(C)C)NC(=O)[C@H](CC(C)C)NC(=O)[C@H](CCCN)NC(=O)[C@H](CCCNC(=N)N)NC(=O)[C@H](C)NC(=O)[C@H](CO)NC(=O)[C@H](CC(C)C)NC(=O)[C@H](CCC(N)=O)NC(=O)[C@H](CC)NC(=O)[C@H](CC(C)C)NC(=O)[C@@H](NC(=O)[C@H](CCCN)NC(=O)[C@H](CCCNC(=N)N)NC(=O)[C@H](Cc1ccc(O)cc1)NC(=O)[C@H](CO)NC(=O)[C@H](CCC(N)=O)NC(=O)[C@@H](NC(=O)[C@H](Cc1ccccc1)NC(=O)[C@@H](NC(=O)[C@H](C)NC(=O)[C@H](CC(=O)O)NC(=O)[C@@H](C)NC(=O)CCc1ccc(O)cc1)[C@@H](C)CC)[C@@H](C)O)C(C)C)[C@@H](C)CC)C(=O)N[C@@H](CC(=O)O)C(=O)N[C@H](CCCNC(=N)N)C(=O)NC; test = GH release, ELISA; system = male Sprague-Dawley rat, anaesthetised, serum; conditions = subcutaneous, 3 µg/kg, 30 min; endpoint = serum GH level; result = 204 ± 23.7 ng/mL
